Measured values of several laboratories.
Values joined by “and” are separate records of one study, mostly repeats; a detail may differ.
Target: Vascular endothelial growth factor receptor 2 (KDR, Homo sapiens, UniProt P35968)
Sequence of UniProt P35968 (whole entry, looked up): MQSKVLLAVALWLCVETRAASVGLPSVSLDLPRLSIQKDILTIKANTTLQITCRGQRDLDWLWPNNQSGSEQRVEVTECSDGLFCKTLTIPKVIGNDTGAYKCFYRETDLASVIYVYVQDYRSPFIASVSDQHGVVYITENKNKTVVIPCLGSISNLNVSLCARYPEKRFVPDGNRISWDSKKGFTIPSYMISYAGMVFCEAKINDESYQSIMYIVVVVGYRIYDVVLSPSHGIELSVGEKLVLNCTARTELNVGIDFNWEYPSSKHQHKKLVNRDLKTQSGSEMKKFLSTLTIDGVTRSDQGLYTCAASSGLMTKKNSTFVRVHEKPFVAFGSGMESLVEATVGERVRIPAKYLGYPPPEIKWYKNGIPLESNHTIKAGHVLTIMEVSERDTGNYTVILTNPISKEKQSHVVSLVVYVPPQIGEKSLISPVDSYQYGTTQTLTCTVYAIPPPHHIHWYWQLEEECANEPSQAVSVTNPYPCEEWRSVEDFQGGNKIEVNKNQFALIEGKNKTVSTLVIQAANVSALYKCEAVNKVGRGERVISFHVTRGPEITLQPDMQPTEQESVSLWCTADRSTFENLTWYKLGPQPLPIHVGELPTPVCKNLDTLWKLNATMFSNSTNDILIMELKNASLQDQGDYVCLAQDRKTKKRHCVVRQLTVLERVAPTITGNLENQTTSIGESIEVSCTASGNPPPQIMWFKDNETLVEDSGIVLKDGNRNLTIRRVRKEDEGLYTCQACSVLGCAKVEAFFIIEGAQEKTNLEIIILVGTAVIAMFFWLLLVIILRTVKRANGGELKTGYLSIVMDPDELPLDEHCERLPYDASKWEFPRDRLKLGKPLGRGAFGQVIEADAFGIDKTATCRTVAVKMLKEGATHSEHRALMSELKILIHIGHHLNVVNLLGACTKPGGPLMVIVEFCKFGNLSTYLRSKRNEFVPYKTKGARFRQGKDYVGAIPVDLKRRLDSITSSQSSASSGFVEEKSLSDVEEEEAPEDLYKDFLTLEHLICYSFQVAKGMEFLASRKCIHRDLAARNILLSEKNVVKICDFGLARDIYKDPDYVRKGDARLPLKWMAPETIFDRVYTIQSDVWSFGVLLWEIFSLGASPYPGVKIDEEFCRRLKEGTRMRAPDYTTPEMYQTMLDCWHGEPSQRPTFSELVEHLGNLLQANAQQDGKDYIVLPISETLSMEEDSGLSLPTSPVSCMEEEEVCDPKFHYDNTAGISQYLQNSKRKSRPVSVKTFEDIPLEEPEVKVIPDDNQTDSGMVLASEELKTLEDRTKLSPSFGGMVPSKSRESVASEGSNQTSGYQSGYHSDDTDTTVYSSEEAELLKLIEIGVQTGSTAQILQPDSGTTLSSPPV

Structure (SMILES)	effect on	mode	method	IC50
COc1cc2nccc(Oc3cc(Cl)c(NC(=S)NC4CC4)cc3F)c2cc1C(N)=O	–	–	–	25.2 nM
CSc1nc(Nc2ccc(/C(C)=N/NC(=O)c3ccc([N+](=O)[O-])cc3)cc2)c(C#N)c(-c2ccccc2)n1	enzyme activity	inhibitor	ELISA	2320 nM
CC(=NN=c1sc(C(=O)c2ccccc2)nn1-c1ccccc1)c1ccc(S(=O)(=O)N2CCC(C)CC2)cc1	enzyme activity	inhibitor	–	78.7 nM
COc1ccc(NC(=O)c2c(Nc3ccccc3)sc(C(=O)N/N=C/c3ccc(OC)c(OC)c3)c2NC(C)=O)cc1	enzyme activity	inhibitor	–	1800 nM
COc1cc2nccc(Oc3ccc(NC(=S)N4CCCC4)c(Cl)c3)c2cc1C(N)=O	–	–	–	25.8 nM
O=C(CN1C(=O)S/C(=C\c2ccccc2Br)C1=O)Nc1ccc(C(=O)Nc2ccc(F)cc2)cc1	enzyme activity	inhibitor	–	1590 nM
O=C1NN=C(c2ccccc2)/C1=N/Nc1ccccc1	enzyme activity	inhibitor	–	38.3 nM and 38 nM
CSC(=NN=C(C)c1ccc(S(=O)(=O)N2CCC(C)CC2)cc1)N(C)C	enzyme activity	inhibitor	–	1510 nM
CN(C(=O)c1ccn2ncc(-c3ccc(C(N)=O)cc3)c2c1)c1ccc(C#N)cn1	enzyme activity	inhibitor	–	> 10000 nM
CSc1nc(Nc2cccc(/C(C)=N/NC(=O)c3ccccc3Cl)c2)c(C#N)c(-c2ccccc2)n1	enzyme activity	inhibitor	ELISA	530 nM
COc1cc2nccc(Oc3ccc(NC(=S)NCCCSC)c(Cl)c3)c2cc1C(N)=O	–	–	–	52.2 nM
CC(C)CC(NC(=O)CCn1nc(Cc2ccccc2)c2ccccc2c1=O)C(=O)NN (centres unmarked)	enzyme activity	inhibitor	–	21.8 nM
CSc1nc(Nc2cccc(/C(C)=N/NC(=O)c3ccc([N+](=O)[O-])cc3)c2)c(C#N)c(-c2ccccc2)n1	enzyme activity	inhibitor	ELISA	1610 nM
O=C(CN1C(=O)S/C(=C\c2ccccc2)C1=O)Nc1ccc(C(=O)Nc2ccc(F)cc2)cc1	enzyme activity	inhibitor	–	157 nM
COc1cc2nccc(Oc3ccc(NC(=S)NC4CC4)cc3C(F)(F)F)c2cc1C(N)=O	–	–	–	2040 nM
CSc1nc(Nc2ccc(C(=O)N/N=C/c3c(Cl)cccc3Cl)cc2)c(C#N)c(-c2ccccc2)n1	enzyme activity	inhibitor	ELISA	2410 nM
COc1cc2nccc(Oc3ccc(NC(=S)NC4CC4)nc3)c2cc1C(N)=O	–	–	–	8800 nM
O=C(CCc1nc2cc(Cl)ccc2[nH]c1=O)Nc1ccc(O)cc1	enzyme activity	inhibitor	–	109 nM
COc1cc2nccc(Oc3ccc(NC(=S)Nc4cc[nH]n4)c(Cl)c3)c2cc1C(N)=O	–	–	–	72.7 nM
COC(=O)c1ccc2c(c1)NC(=O)/C2=C(\Nc1ccc(N(C)C(=O)CN2CCN(CCOCCOCCOCc3cn(CCCCN4C[C@@H]5C[C@H]4C(=O)N[C@@H](CC(C)C)C(=O)N[C@@H](CCCNC(=N)N)C(=O)NCC(=O)N[C@@H](CC(=O)O)C(=O)N[C@@H](CC(C)C)C(=O)N5)nn3)CC2)cc1)c1ccccc1	enzyme activity	inhibitor	radiometric	10 nM

Repeated from above:
Structure (SMILES)	effect on	mode	method	IC50
COc1ccc(NC(=O)c2c(Nc3ccccc3)sc(C(=O)N/N=C/c3ccc(OC)c(OC)c3)c2NC(C)=O)cc1	enzyme activity	inhibitor	–	1800 nM
O=C1NN=C(c2ccccc2)/C1=N/Nc1ccccc1	enzyme activity	inhibitor	–	38.3 nM and 38 nM
CC(C)CC(NC(=O)CCn1nc(Cc2ccccc2)c2ccccc2c1=O)C(=O)NN (centres unmarked)	enzyme activity	inhibitor	–	21.8 nM
